Measured values from different studies.
A part holds a random share of what one study measured.

Study 1
Target: Fragile X messenger ribonucleoprotein 1, C-terminal low-complexity region (Fmr1, Mus musculus, UniProt P35922)
Method: RNA Bind-n-Seq
Form: RNA
Medium: in vitro
Tested at: 200 nM
Notes: whole 134-nt RNA, ends assumed
With: 150 mM KCl
Baseline: input library
Reading: higher = stronger binding
The log2 enrichment of `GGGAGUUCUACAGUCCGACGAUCUCCCAAUGCUCGGAGGAAGCCCAAGGGCAGCCCUCGUGUACCUGAUGCCAAGAAGCCUAAACCCAAGAAAGUAGCUCCCCUGAAAAUCAAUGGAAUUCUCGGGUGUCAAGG` is reported as 0.372.
With `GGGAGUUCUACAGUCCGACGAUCUCAAGUCCUGUGCUACACAUCGUAUGUACCGAAUCGGGGAAGGGAAGGGAAGGGAAAGUAUUAUGUUACGCCGUUCGGAUCUGCACUUCCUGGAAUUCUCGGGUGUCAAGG` the log2 enrichment was 0.889.
`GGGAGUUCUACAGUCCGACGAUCCCUGUGCUACACAUCGUAUGUACCGAAUCGGGCCCCCCCGGCCCCCCCGGGGCCCCCCCGGAAAGUAUUAUGUUACGCCGUUCGGAUCUGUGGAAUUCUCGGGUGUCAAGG` has a log2 enrichment of -0.521.
For `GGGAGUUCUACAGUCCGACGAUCCACAGACAACACGCACCCACACAGACACAGAGGGAAGGGGUUUGGAUGGGGACAGGGUGCACAGCAGGGCGGGGUAGGACCCCAGCCCCUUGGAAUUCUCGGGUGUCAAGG`, the log2 enrichment was 1.18.
With `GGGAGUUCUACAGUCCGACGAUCUCGGACGCCGCCAACCUGCACGAGUUCCACGCGGACCUGCGCUCAUGCUUUGCACCCCAGCACAUGGCCAUGCUGUGUAGCCCCAUCCUCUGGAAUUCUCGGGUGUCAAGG` the log2 enrichment was 0.424.
For `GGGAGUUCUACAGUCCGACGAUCCUCAAGUCCUGUGCUACACAUCGUAUGUACCGAAUCGGAAAAAAAGGAGGAGGAAAGUAUUAUGUUACGCCGUUCGGAUCUGCACUUCCAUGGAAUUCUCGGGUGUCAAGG`, the log2 enrichment was -0.292.
`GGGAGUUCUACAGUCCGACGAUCUCAAGUCCUGUGCUACACAUCGUAUGUACCGAAUCGGUUUUGGUUUUGGUUUUGGAAAGUAUUAUGUUACGCCGUUCGGAUCUGCACUUCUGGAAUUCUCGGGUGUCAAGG` gave a log2 enrichment of -0.771.
`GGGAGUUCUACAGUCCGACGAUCGGCAGUAGCAGCAGCGCCGGGUCCCGUGCGGAGGUGCUCCUCGCAGAGUUGUUUCUCGAGCAGCGGCAGUUCUCACUACAGCGCCAGGACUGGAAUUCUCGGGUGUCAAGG` gave a log2 enrichment of -1.02.
For `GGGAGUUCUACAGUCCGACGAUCGCAGGAAGUAAAAACAAAUGGAAAUGCUUCGGAUAGUGGCAGGGGUGGGGGUUGCUAAGGAAAGGGUGGGAAGGGAGUGGGUAAAGAGUUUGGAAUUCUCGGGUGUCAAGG`, the log2 enrichment was 0.0648.
For `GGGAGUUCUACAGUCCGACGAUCCAAGUCCUGUGCUACACAUCGUAUGUACCGAAUCGGGUUUUUGGGUUUGGGAGGGAAAGUAUUAUGUUACGCCGUUCGGAUCUGCACUUCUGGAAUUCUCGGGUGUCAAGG`, the log2 enrichment was 1.05.
The log2 enrichment of `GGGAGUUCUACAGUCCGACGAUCCACAGACAACACGCACCCACACAGACACAGAGGGAAGGGGUUGGGAUGGGGACAGGGUAAACAGCAGGGCGGGGUAGGACCCCAGCCCCUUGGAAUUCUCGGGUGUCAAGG` is reported as 1.23.
With `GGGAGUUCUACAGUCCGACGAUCAAGUCCUGUGCUACACAUCGUAUGUACCGAAUCGGGGAAAGGGGAAAGGGGUGGGGAAAGUAUUAUGUUACGCCGUUCGGAUCUGCACUUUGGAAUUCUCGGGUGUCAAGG` the log2 enrichment was 0.462.
With `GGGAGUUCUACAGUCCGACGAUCUACUAUCAAACAAUCGGAAACCACGCGUCCUACUACAAAGAUGCUCUGCGGUUUUUGGGCUGUGUUGACAUCAAGGAUCUACCAGGUAACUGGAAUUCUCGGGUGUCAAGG` the log2 enrichment was -1.39.
With `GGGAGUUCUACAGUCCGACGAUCGUCCUGUGCUACACAUCGUAUGUACCGAAUCGGGAAAAAGGGGAAAAAGGGAAAAAGGAAAGUAUUAUGUUACGCCGUUCGGAUCUGCACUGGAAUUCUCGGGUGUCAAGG` the log2 enrichment was -0.28.

Study 2
Target: Histone acetyltransferase KAT6A, winged helix 2, GST fusion (KAT6A, Homo sapiens, UniProt Q92794, residues 85-181)
Method: protein binding microarray
Form: double-stranded DNA, one strand shown
Medium: in vitro
Tested at: not given
Notes: 8-mer, flanks averaged, mean of 2 arrays, mostly near background
Baseline: not given
Reading: higher = stronger binding
Construct (chain): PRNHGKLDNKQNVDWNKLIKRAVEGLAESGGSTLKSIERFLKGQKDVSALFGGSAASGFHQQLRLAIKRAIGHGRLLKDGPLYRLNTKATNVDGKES
`CCGAACAG` has an E-score of 0.0597.
For `AAGCATGT`, the E-score was -0.0352.
The E-score of `CCGACGTC` is reported as 0.0662.
`TAACACTA` gave an E-score of 0.0848.
The E-score of `GAATGACA` is reported as -0.0165.
`AGGAATTA` gave an E-score of 0.0143.
With `ACTTTAAC` the E-score was -0.039.
`CAGGGCTA` gave an E-score of -0.208.
`CCTGGGCA` gave an E-score of 0.0668.
For `TGCTGCCA`, the E-score was 0.046.
With `ATCTGTAG` the E-score was -0.138.
`GCGGGTAC` has an E-score of 0.19.
With `CGAGTCAG` the E-score was 0.103.
The E-score of `CAGCAACC` is reported as 0.124.
For `CAACAGTG`, the E-score was -0.109.
With `ATACCCAG` the E-score was 0.0298.
For `CGCTATAC`, the E-score was -0.0668.

Study 3
Target: RING finger protein unkempt homolog, zinc fingers 1-6, SBP tag (UNK, Homo sapiens, UniProt Q9C0B0, residues 30-357)
UniProt Q9C0B0, sequence (30-357, looked up): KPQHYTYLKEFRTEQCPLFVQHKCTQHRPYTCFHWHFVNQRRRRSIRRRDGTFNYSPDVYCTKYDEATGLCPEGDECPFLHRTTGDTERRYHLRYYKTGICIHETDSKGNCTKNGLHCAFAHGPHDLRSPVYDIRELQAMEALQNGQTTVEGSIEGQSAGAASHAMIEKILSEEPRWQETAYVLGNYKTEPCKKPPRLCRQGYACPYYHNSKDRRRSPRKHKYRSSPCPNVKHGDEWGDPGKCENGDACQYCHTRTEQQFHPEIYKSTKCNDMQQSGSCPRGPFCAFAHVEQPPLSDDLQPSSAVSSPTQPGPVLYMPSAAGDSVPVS
Method: RNA Bind-n-Seq
Form: RNA
Medium: in vitro
Tested at: 100 nM
Notes: RNA with constant flanks, vertebrate orthologous sites, ends assumed
Baseline: input RNA pool
Reading: higher = stronger binding
`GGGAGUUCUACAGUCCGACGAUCUUAAUUAGAAGGUAGUAUGUGUUUCAUAAAGAAAAGUCUUUAUAAUUUUUGUUUGUCAUGUAGUAUUUUGGAAUUUGUAUAAUGAGGACGUUUAGAAGCCAUAUCAAUGGCUUUUUUUACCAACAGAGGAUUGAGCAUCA` has a bound/input enrichment of 0.252 ratio.
`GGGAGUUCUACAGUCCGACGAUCCGUGCUUAUGCUCUUCUAUGAGAGAGAUGAAUUGGGGAGAACUGUCUCCGUUUUAUAGAUUAAUUUCUUUCUAAAUUAUGACCAAAAAUAUUUUGCUAUUUCUUUCUUUGUAUAUGGACACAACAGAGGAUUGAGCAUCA` has a bound/input enrichment of 0.565 ratio.
The bound/input enrichment of `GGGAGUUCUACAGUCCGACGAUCUUGGGAGCAGCCCUUCAAACAGAAAUAGUAGUAAAAAAACCAAACAAAAUGAUACUUGCGUAGAAAAAACAGAAGUUAAAUCAUGGAAAGUAAAUGCUGCCAGUGUUCCAGGCCCUAAAGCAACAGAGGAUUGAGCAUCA` is reported as 0.712 ratio.
`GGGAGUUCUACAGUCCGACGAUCACAUCAUGGAUUACUGUCAUUUUGGUAGCAGGUAGAACAUUUUGCAAGAAAUGUAUACACCUAGUUAAGCUGAAUAUGAUAUAUUUUUAUUAGCCUGUAAAUAAAUAUACUCUUCUGCAUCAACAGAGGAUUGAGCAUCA` gave a bound/input enrichment of 0.682 ratio.
`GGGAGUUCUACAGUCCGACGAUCAGCAAGCCAAGGAUUCAGAACUGGUUUUACAAAUAUACCAAGUAGAUACGGAACUAACAGCAGAAUUGGACAAUCAAGACCAUGAUGGACACUUAACUUAUUUCUACGAGGAAUACUGACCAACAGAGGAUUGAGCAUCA` gave a bound/input enrichment of 0.576 ratio.
The bound/input enrichment of `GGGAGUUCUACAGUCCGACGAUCUUGUUUGUUUUGCUUAAGAGUUUGUAUUAAAAGUCUUCGAAGGAAGGAAUAGGGAUACUGUAGCAGUGGUCCCCAGGUGCCUGGCCUCCAGUGCCCCACUUGGAACCACCCUGUCAGGGUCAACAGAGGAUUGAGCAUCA` is reported as 0.284 ratio.
The bound/input enrichment of `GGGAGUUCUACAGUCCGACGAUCGCCAAGGGACACCCAGCGGGGCAAGGAGCGACCCAAGCCAGCAAAGGUGGGGCAGGAUCGCUGCCAUCUGCGUCGGCCAGGCUGCACUCACUGCCCUGUGCGCCCCUCUGGUGCAAAACCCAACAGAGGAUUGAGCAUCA` is reported as 0.26 ratio.
`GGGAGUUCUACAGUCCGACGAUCCAGGGAUGGCCCUAAUCCCACCUCUGUUUAUUCUGUAAACUACAACCUGUAAAUAAUGUUUAGCAUUCCUAUUGUAACAAAAUUAAUUUUUAUGAAAUAAAUUAUAUUUCCUAGUCUAAUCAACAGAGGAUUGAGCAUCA` gave a bound/input enrichment of 1.29 ratio.

Study 4
Target: Interferon regulatory factor 3, full length, phosphomimetic (IRF3, Homo sapiens, UniProt Q14653, residues 1-427, S386D/S396D/S398D/S402D/T404D/S405D)
Method: protein-binding microarray
Form: double-stranded DNA, one strand shown
Medium: in vitro
Tested at: 2540 nM top
Notes: 60-bp whole probe
With: salmon DNA 0.4 mg/ml
Baseline: random background probes
Reading: higher = stronger binding
Constant ends, left off below: GCCTAGCAC … GTCTTGATTCGCTTGACGCTGCTG
Construct (chain): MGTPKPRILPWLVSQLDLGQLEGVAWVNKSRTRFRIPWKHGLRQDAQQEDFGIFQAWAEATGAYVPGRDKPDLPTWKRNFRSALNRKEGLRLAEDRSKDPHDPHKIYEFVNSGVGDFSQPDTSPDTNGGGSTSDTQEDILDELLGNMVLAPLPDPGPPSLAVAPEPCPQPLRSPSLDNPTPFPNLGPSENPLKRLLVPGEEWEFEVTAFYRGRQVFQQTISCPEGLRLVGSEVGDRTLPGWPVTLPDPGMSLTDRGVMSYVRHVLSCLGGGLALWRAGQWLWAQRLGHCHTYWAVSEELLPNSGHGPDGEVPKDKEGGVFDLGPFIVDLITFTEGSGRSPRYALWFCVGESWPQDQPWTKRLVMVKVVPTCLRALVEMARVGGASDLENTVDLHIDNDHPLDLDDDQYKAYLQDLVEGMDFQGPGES
`GACGGTCTGGGTATCGGGACGTGCTAG`: “fitted relative affinity” -0.0843 z-score.
`GACGATATTGGGTATCGAGACGTGCTA`: “fitted relative affinity” -0.0242 z-score.
For `GACGGAATCGGACTGGGGACGTGCTAG`, “fitted relative affinity” read 0.101 z-score.
`TTAGGTTTCGGGTATCGGCTAGTGCTA`: “fitted relative affinity” 3.81 z-score.
For `TTAGATATCAGCCTGGATTAGTGCTAG`, “fitted relative affinity” read -0.315 z-score.
`GAAGGTATCGACTATCGGGACGTGCTA`: “fitted relative affinity” 0.302 z-score.
Under “fitted relative affinity”, `TCAGCTTCCTCTTTCACACTGTGCTAG` is recorded as 1.88 z-score.
`GACGGTTCCCTTTTCCTGCCGTGCTAG`: “fitted relative affinity” 5.82 z-score.
Under “fitted relative affinity”, `GACGGACTGGGGACGGGGGACGTGCTA` is recorded as -0.3 z-score.
For `GACGGACTGGGGAGTGGGGACGTGCTA`, “fitted relative affinity” read -0.985 z-score.
`TTAGATATCAGGATCGATTAGTGCTAG`: “fitted relative affinity” 0.73 z-score.
`ACTAGTTTCCATTTTCAGAAGTGCTAG` — result for “fitted relative affinity”: 9.85 z-score.
For `TCACCTTGGGCTCTAGGACTGTGCTAG`, “fitted relative affinity” read -0.42 z-score.
`GACGGTATCGACGTTCGGGACGTGCTA`: “fitted relative affinity” 0.249 z-score.
`GACGGACTGGGTTTCGGGATGTGCTAG`: “fitted relative affinity” 1.4 z-score.
`GACGGTATCGGCATCGGGACGTGCTAG`: “fitted relative affinity” 0.855 z-score.
Under “fitted relative affinity”, `GAATGTGTCTTAAATAGGGCAGTGCTA` is recorded as 0.496 z-score.
Under “fitted relative affinity”, `GACGGTCTCCTATTCCTGACGTGCTAG` is recorded as 2.3 z-score.
For `GACGGACTGGGGCATCGGGACGTGCTA`, “fitted relative affinity” read -1.11 z-score.
For `TTAGGACTGGGACTGGTTTAGTGCTAG`, “fitted relative affinity” read -0.886 z-score.
`TTTGGACTGCTTATCCTTTAGTGCTAG`: “fitted relative affinity” -0.0032 z-score.
`GACGGTATCCTTATCGTGACGTGCTAG`: “fitted relative affinity” 5.15 z-score.
`TCAGGTCTCCCTTGAGGTTTGTGCTAG` — result for “fitted relative affinity”: 0.719 z-score.
For `TTAGATTTCAGACCGGATTAGTGCTAG`, “fitted relative affinity” read 0.546 z-score.
Under “fitted relative affinity”, `GACGCTTTCGGTCTCGGGACGTGCTAG` is recorded as 4.85 z-score.
